Measurements pooled from the literature.
Protocols differ between the studies behind these lines. Numbers after ± are the reported error.

With CC(=O)N[C@H](CC(=O)O)C(=O)N[C@H](Cc1c[nH]c2ccccc12)C(=O)N[C@H](Cc1ccccc1)C(=O)N[C@H](CCCCN)C(=O)N[C@H](C)C(=O)N[C@H](Cc1ccccc1)C(=O)N[C@H](Cc1ccc(O)cc1)C(=O)N[C@H](CC(=O)O)C(=O)N[C@H](CCCCN)C(=O)N[C@@H](C(=O)N[C@H](C)C(=O)N[C@H](CCC(=O)O)C(=O)N[C@H](CCCCN)C(=O)N[C@H](Cc1ccccc1)C(=O)N[C@H](CCCCN)C(=O)N[C@H](CCC(=O)O)C(=O)N[C@H](C)C(=O)N[C@H](Cc1ccccc1)C(N)=O)C(C)C the Cmax was 3.37 ng/mL (statin-treated high-risk CHD women, plasma; oral, 100 mg daily, day 13, 0 to 8 h, mean, detected subjects).
For CC1(C)CCC(CN2CCN(c3ccc(C(=O)NS(=O)(=O)c4ccc(NCC5COCCO5)c([N+](=O)[O-])c4)c(N4CCCOc5nc6[nH]ccc6cc54)c3)CC2)=C(c2ccc(Cl)cc2)C1 (centres unmarked), the Cmax was 8000 ng/mL (male Beagle dogs, plasma; oral, 25 mg/kg).
The Cmax of CCCC[C@H](NC(C)=O)C(=O)N[C@H]1CC(=O)NCCCC[C@@H](C(=O)N[C@@H](C(=O)N2CCC[C@@H]2C(N)=O)C(C)C)NC(=O)[C@H](Cc2c[nH]c3ccccc23)NC(=O)[C@H](CCCN=C(N)N)NC(=O)[C@@H](Cc2ccc3ccccc3c2)NC(=O)[C@@H]2CCCN2C1=O is reported as 1520 ± 200 ng/mL (dog, cachectic, plasma; subcutaneous, 0.75 mg/kg once daily, day 1, 1 h post-dose).
For Cc1ncc2c(n1)CN(C(=O)Nc1nc(-c3cccs3)ccc1N)C2, the Cmax was 6280 ± 1510 ng/mL (male beagle dogs; oral, 45 mg/kg daily, day 14).
With Cc1ccc(OCC(=O)O)cc1 the Cmax was 2560 ± 1240 ng/mL (Sprague-Dawley rat, male, plasma; oral gavage, 10 mg/kg of parent drug).
The Cmax of CC(C)C[C@@H](NC(=O)[C@H](NC(=O)[C@H]1CCCN1)[C@H](C)O)C(=O)N[C@H](Cc1c[nH]cn1)C(=O)N[C@@H](C(=O)N[C@H](Cc1c[nH]cn1)C(=O)N[C@H](CC(N)=O)C(=O)N[C@H](CCCNC(=N)N)C(=O)N[C@H](CCCNC(=N)N)C(=O)N[C@H](CCCNC(=N)N)C(=O)N[C@H](CCCNC(=N)N)C(=O)N[C@H](CCCNC(=N)N)C(N)=O)[C@H](C)O is reported as 21 ± 18 ng/mL (Beagle dog, CSF; oral, 50 mg/kg).
The tracer uptake of CCN(CC)c1ccc2c(-c3ccc(S(=O)(=O)NCCNC(=O)CN4CCN(CC(=O)[O-])CCN(CC(=O)O)CCN(CC(=O)[O-])CC4)cc3S(=O)(=O)[O-])c3ccc(=[N+](CC)CC)cc-3oc2c1.[64Cu+2] is reported as 0.7 %ID/g (U-87 MG tumour model; host not given, blood; 4 h, tumour-bearing).
For Cc1ccc(OCC(=O)N(Cc2cccs2)c2ccn[nH]2)cc1, the Cmax was 1330 ± 94 ng/mL (male beagle dog, plasma; intravenous, 1.0 mg/kg).
Cc1[nH]c(/C=C2\C(=O)Nc3ccc(F)cc32)c(C)c1NC(=O)CCN1CCN(C)CC1 has a Cmax of 50.9 ± 31.9 ng/mL (Beagle dog, both sexes, plasma; oral, 3 mg/kg).
For Cn1c2ccc([N+](=O)[O-])cc2c(=O)n1Cc1ccccc1, the selectivity index was 2 (Leishmania amazonensis; promastigotes, MHOM/BR/77/LTB0016; reference: CC50 macrophages over IC50 promastigotes).
For CC(C)(O)c1ncc([S@](N)(=O)=NC(=O)Nc2c3c(cc4c2CCC4)CCC3)s1, the Cmax was 2640 ng/mL (healthy human; oral, 30 mg once daily, day 1, capsule formulation, geometric mean).
For CCCC[C@H](NC(C)=O)C(=O)N[C@H]1CC(=O)NCCCC[C@@H](C(=O)N[C@@H](C(=O)N2CCC[C@@H]2C(N)=O)C(C)C)NC(=O)[C@H](Cc2c[nH]c3ccccc23)NC(=O)[C@H](CCCN=C(N)N)NC(=O)[C@@H](Cc2ccc3ccccc3c2)NC(=O)[C@@H]2CCCN2C1=O, the Cmax was 2600 ± 300 ng/mL (Beagle dog, both sexes, plasma; subcutaneous, once daily, 0.75 mg/kg, day 1).
C#CCn1c2ccc([N+](=O)[O-])cc2c(=O)n1Cc1ccccc1 has a selectivity index of 5 (Leishmania amazonensis; promastigotes, MHOM/BR/77/LTB0016; reference: CC50 macrophages over IC50 promastigotes).
N=C(N)NCCC[C@@H]1NC(=O)[C@H](Cc2c[nH]c3ccccc23)NC(=O)[C@@H](CC2CCCCC2)NC(=O)[C@@H]2CCCN2C(=O)[C@@H](NC(=O)CCc2ccccc2)CCCNC1=O gave a Cmax of 5620 ng/mL (C57BL/6J mouse, plasma; subcutaneous, 1 mg/kg, single dose).

A few entries again:
For CC(C)(O)c1ncc([S@](N)(=O)=NC(=O)Nc2c3c(cc4c2CCC4)CCC3)s1, the Cmax was 2640 ng/mL (healthy human; oral, 30 mg once daily, day 1, capsule formulation, geometric mean).
For CCCC[C@H](NC(C)=O)C(=O)N[C@H]1CC(=O)NCCCC[C@@H](C(=O)N[C@@H](C(=O)N2CCC[C@@H]2C(N)=O)C(C)C)NC(=O)[C@H](Cc2c[nH]c3ccccc23)NC(=O)[C@H](CCCN=C(N)N)NC(=O)[C@@H](Cc2ccc3ccccc3c2)NC(=O)[C@@H]2CCCN2C1=O, the Cmax was 2600 ± 300 ng/mL (Beagle dog, both sexes, plasma; subcutaneous, once daily, 0.75 mg/kg, day 1).
